Assay results collected from several papers.
Every numbered part comes from another study and shows a few of its results, in no order.
Chain of UniProt O95835 (whole entry, looked up): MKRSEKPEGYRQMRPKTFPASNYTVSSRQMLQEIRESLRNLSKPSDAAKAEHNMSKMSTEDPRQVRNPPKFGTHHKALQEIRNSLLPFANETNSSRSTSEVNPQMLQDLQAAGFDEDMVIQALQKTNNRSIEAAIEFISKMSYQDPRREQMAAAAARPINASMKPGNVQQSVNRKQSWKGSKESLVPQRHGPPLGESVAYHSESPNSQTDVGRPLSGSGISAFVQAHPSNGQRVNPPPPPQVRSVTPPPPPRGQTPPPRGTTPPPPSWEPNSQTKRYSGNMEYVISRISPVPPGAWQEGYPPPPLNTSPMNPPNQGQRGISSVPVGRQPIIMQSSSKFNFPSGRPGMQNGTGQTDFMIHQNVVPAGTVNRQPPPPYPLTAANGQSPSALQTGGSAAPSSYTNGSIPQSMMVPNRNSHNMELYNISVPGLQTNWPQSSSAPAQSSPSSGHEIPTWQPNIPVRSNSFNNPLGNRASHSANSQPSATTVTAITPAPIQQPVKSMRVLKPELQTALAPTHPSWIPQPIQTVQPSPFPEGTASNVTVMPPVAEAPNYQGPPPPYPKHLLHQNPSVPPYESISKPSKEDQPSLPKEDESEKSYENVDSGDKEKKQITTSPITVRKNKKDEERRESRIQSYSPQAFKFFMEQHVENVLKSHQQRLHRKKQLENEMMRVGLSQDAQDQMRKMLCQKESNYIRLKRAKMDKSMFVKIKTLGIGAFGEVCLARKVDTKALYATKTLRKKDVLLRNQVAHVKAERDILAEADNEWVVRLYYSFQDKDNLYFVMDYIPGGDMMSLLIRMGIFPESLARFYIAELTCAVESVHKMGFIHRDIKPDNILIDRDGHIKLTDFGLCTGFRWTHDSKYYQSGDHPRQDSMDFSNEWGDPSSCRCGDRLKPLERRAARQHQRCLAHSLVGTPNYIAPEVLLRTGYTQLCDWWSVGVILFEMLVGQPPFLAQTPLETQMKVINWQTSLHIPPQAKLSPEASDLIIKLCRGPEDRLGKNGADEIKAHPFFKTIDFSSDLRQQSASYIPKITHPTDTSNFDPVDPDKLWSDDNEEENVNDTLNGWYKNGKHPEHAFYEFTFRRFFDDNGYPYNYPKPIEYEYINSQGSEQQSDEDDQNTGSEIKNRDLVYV
Chain of UniProt Q02750 (whole entry, looked up): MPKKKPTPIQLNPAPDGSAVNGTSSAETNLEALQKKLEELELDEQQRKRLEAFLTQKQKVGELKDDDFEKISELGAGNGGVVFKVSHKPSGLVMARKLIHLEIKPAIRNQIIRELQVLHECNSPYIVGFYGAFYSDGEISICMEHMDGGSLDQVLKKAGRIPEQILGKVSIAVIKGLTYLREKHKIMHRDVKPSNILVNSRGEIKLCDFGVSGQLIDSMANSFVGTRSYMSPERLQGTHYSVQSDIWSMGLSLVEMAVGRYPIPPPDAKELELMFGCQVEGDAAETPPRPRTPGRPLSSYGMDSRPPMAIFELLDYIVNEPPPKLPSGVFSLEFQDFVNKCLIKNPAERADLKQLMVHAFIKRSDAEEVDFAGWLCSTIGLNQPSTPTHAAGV
Chain of UniProt Q9Y2H1 (whole entry, looked up): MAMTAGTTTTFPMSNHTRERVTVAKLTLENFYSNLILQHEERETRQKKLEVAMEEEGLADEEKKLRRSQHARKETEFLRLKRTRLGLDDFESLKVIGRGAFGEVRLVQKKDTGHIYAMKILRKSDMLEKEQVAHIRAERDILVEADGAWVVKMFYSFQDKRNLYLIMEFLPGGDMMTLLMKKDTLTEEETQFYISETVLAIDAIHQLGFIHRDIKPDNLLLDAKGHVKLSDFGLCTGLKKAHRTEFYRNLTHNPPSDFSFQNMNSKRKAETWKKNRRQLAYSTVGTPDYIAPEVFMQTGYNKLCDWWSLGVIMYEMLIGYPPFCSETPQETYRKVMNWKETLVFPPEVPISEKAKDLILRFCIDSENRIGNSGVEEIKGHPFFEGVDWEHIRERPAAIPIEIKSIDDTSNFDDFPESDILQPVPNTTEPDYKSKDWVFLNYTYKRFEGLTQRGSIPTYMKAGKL
Chain of UniProt Q13464 (whole entry, looked up): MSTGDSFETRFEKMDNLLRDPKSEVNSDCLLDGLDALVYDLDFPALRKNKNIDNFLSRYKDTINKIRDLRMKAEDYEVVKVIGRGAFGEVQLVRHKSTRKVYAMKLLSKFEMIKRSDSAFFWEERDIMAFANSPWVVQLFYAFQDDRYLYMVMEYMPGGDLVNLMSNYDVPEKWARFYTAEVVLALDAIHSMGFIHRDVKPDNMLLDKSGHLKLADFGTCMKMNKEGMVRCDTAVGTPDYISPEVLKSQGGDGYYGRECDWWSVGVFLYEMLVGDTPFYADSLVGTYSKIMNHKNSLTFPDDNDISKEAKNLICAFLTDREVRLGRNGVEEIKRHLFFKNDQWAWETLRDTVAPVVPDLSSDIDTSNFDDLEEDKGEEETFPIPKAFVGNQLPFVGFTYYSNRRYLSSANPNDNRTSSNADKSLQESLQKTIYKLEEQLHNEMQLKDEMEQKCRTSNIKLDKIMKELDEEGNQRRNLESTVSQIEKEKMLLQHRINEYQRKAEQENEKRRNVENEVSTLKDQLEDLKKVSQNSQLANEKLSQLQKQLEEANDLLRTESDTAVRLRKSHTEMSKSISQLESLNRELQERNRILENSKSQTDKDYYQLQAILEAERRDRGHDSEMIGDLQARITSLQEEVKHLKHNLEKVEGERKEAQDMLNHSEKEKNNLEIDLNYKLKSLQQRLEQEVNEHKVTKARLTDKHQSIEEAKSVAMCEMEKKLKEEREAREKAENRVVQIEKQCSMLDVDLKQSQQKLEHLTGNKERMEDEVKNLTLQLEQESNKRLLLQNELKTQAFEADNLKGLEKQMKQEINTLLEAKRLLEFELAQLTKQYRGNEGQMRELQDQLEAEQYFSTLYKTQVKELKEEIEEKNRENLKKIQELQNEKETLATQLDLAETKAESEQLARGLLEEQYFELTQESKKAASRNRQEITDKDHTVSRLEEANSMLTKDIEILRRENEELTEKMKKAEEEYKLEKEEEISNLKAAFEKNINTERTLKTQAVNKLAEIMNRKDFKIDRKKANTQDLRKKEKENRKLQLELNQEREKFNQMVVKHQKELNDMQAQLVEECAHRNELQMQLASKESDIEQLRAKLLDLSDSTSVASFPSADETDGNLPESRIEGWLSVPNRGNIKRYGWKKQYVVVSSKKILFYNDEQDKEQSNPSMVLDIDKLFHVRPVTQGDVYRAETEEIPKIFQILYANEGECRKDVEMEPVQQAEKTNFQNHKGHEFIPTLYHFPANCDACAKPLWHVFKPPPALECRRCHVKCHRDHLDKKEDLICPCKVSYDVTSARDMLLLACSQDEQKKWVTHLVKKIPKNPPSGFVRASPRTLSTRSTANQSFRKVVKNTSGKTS
Chain of UniProt Q06418 (whole entry, looked up): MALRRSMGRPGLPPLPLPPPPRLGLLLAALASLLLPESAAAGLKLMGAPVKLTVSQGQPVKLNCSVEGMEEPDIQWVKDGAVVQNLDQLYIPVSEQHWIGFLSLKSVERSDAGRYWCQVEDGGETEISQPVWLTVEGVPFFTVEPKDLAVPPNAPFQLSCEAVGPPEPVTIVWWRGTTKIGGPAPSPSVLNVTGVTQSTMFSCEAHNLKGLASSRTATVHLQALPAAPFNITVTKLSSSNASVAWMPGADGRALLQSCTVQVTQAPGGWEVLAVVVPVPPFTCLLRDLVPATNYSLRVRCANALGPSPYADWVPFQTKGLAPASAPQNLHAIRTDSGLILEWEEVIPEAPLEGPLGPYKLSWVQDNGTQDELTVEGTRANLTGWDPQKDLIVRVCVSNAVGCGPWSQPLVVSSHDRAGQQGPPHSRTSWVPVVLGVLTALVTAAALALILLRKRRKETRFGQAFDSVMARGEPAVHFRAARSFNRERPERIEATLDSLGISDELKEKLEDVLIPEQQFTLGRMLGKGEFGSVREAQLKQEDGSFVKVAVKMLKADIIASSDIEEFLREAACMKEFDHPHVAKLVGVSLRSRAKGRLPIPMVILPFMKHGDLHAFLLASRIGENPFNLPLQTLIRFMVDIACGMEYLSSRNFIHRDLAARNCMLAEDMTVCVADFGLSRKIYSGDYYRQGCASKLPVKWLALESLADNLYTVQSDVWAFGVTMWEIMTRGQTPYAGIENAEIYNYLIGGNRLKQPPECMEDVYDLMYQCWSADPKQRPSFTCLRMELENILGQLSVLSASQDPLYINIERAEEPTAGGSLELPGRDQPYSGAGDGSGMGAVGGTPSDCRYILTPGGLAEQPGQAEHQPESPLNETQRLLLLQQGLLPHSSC

Block 1
SMILES: CC(=O)N[C@@H](Cc1c[nH]c2ccccc12)C(=O)N[C@@H](CCC(=O)C=[N+]=[N-])C(=O)OC(C)C
Dose: dose not given
Reference: vehicle
It gave 0.0576 for “log2 fold change” (refers to: hydroxyproline; mouse, EL4 tumour-bearing, EL4 tumour).
For refers to: nicotinamide riboside; Mus musculus, EL4 tumour: “log2 fold change” read 0.00367.
It gave 1.1 for “log2 fold change” (refers to: maltotriose; mouse, EL4 tumour-bearing, EL4 tumour).
refers to: mesaconate; mouse, EL4 tumour, tumour — “log2 fold change”: 2.54.
For refers to: glucose 1-phosphate; mouse, EL4 tumour-bearing, EL4 tumour: “log2 fold change” read 0.75.

Block 2
Host: human
Medium: microsomes or S9
Concentration: 2 µM
Time: 0.5 h
`CCn1nc(CN[C@@H]2CCC(=O)N[C@H]2c2ccnn2C)c2ccccc21` has a remaining compound of 85.8%.
`COc1cc2c(cc1OC)/C(=N\c1ccccc1)N(Cc1ccccc1F)CC2` gave a remaining compound of 3.2%.
For `Cn1ccc(Cn2nnn(-c3cccs3)c2=O)cc1=O`, the remaining compound was 86.5%.
With `COc1cc(Br)c(S(=O)(=O)NC2CCN(S(=O)(=O)CCN3CCCCC3)CC2)cc1OC` the remaining compound was 0.0275%.
`N#Cc1ccc(Cn2cnc3c([nH]c4ccccc43)c2=O)cc1` gave a remaining compound of 18.5%.

Block 3
Compound: O=C(N[C@H]1CCCCC/C=C\C2C[C@@]2(C(=O)O)NC(=O)[C@@H]2C[C@@H](Oc3ccncc3)CN2C1=O)OC1CCCC1 (some centres unmarked)
Technique: competition with immobilised ligand
Concentration: 1 µM
It gave 99% for remaining binding (LATS1 (Homo sapiens, UniProt O95835); binding).
The remaining binding was 80% (STK38L (Homo sapiens, UniProt Q9Y2H1); binding).
The remaining binding was 100% (TYRO3 (Homo sapiens, UniProt Q06418); cell-free assay).
For TBK1 (Homo sapiens, UniProt Q9UHD2); binding: remaining binding read 100%.
It gave 92% for remaining binding (MAP2K1 (Homo sapiens, UniProt Q02750); binding).
For Receptor-type tyrosine-protein kinase FLT3, autoinhibited (FLT3, Homo sapiens, UniProt P36888); binding: remaining binding read 100%.
ROCK1 (Homo sapiens, UniProt Q13464); binding — remaining binding: 100%.

Block 4
Target: G protein-coupled receptor kinase 6 (GRK6, Homo sapiens, UniProt P43250)
Chain of UniProt P43250 (whole entry, looked up): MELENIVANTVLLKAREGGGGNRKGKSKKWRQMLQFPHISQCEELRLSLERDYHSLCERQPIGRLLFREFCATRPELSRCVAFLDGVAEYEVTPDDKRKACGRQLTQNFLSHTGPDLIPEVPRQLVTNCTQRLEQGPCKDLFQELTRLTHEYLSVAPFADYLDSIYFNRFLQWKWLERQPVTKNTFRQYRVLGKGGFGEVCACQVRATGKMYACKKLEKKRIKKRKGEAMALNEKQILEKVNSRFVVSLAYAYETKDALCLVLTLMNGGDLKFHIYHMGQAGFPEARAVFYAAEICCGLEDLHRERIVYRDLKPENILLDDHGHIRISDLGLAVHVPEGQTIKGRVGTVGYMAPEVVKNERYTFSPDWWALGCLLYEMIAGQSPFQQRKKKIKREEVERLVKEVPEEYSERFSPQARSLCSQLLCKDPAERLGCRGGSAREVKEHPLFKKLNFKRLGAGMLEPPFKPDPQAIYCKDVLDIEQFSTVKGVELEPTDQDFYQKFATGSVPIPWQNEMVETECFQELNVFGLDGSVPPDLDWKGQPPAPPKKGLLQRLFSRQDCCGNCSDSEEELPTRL
Read-out: enzyme activity
Action: inhibitor
Concentration: 0.5 µM
Reference: control
With `COc1ccc(C(=O)Nc2sc3c(c2C(N)=O)CCCC3)cc1OC` the remaining activity was 98.5%.
`O=C1NC(=O)C(c2cn(CCCn3ccnc3)c3ccccc23)=C1Nc1ccccc1` gave a remaining activity of 98.4%.
For `Oc1ccc(-c2nc(-c3ccncc3)c(-c3ccc(F)cc3)[nH]2)cc1`, the remaining activity was 99.7%.
With `CCOC(=O)c1c(C)[nH]c(/C=C2\C(=O)Nc3ccccc32)c1C` the remaining activity was 90.8%.
`Nc1ccc2ncnc(NCCc3ccc(Oc4ccccc4)cc3)c2c1` has a remaining activity of 99.3%.
For `O=C(CCCc1ccc(-c2ccccc2F)cc1)Nc1ccc(O)cc1`, the remaining activity was 104%.
`O=C1NC(=O)C(c2cn(CCCO)c3ncccc23)=C1c1cnccn1` gave a remaining activity of 102%.
With `OCC(O)CCON=C1C(c2c(O)[nH]c3ccccc23)=Nc2ccccc21` (centres unmarked) the remaining activity was 53.1%.
For `C#Cc1cccc(Nc2ncnc3cc(OCCOC)c(OCCOC)cc23)c1`, the remaining activity was 99.2%.
`COc1cc2nccc(Oc3ccc(NC(=S)NC(=O)c4ccccc4C)cc3)c2cc1OC` gave a remaining activity of 91%.
For `COc1cc2ncnc(Nc3ccc(F)c(Cl)c3)c2cc1OCCCN1CCOCC1`, the remaining activity was 99.6%.
For `COc1ccc(OC)c2c(=S)c3ccccc3[nH]c12`, the remaining activity was 97.2%.
With `COc1ccc(CNC(=O)Nc2ncc([N+](=O)[O-])s2)cc1` the remaining activity was 99.6%.
For `Cc1ccc(Nc2nccc(N(C)c3ccc4c(C)n(C)nc4c3)n2)cc1S(N)(=O)=O`, the remaining activity was 102%.
`Cn1sc(=O)n(Cc2ccccc2)c1=O` has a remaining activity of 104%.
